Measured values pooled from the literature.
Lines come from different studies, so protocols differ. Several values in a cell are separate wells, animals, samples, runs or records. ± marks the error that the study gave.

O=C1NCC(COc2cccc3c(NCc4ccco4)cc(Cl)nc23)O1 (stereo not drawn)
tissue/plasma ratio (C57BL/6 mouse, heart; oral, 30 mg/kg, 0.5 h; relative to: heart over plasma): 0.447

C#CCCC[C@H](NC(=O)[C@H](C)NC(=O)[C@H](CCCNC(=N)N)NC(=O)[C@H](C)NC(=O)[C@H](CS)NC(=O)[C@H](CCC(=O)O)NC(=O)[C@H](C)NC(C)=O)C(=O)N[C@@H](C)C(=O)N[C@@H](Cc1ccc(O)cc1)C(N)=O
helicity (circular dichroism; 10 mM phosphate buffer; pH 7.4, 20 °C): 15%

CC[C@H](C)[C@H](NC(=O)[C@H](CCCCN)NC(=O)[C@H](CCC(=O)O)NC(=O)[C@H](CCCCN)NC(=O)[C@H](CC(C)C)NC(=O)[C@H](C)NC(=O)[C@H](C)NC(=O)[C@@H](NC(=O)[C@H](CCCCN)NC(=O)[C@@H]1CSCc2cccc(c2)CSC[C@H](NC(=O)[C@@H](NC(=O)[C@H](CCCCN)NC(C)=O)[C@@H](C)CC)C(=O)N[C@@H](C)C(=O)N[C@@H](CC(C)C)C(=O)N[C@@H](CCCCN)C(=O)N1)[C@@H](C)CC)C(=O)N[C@@H](C)C(=O)N[C@@H](C)C(=O)N[C@@H](CC(C)C)C(=O)N[C@@H](CCCCN)C(=O)N[C@@H](CCC(=O)O)C(=O)NCC(=O)N[C@@H](Cc1c[nH]c2ccccc12)C(N)=O
helicity (circular dichroism at 222 nm; PBS; pH 7.4, 20 °C, single peptide 50 µM total): 53%

O=C(Nc1cnccc1-c1ccc([18F])nc1)c1ccnc(NC(=O)C2CC2)c1
SUV (ex vivo gamma counting; GSK-3β transgenic mice, early-stage, hippocampus; intravenous, 120 min, mean, P-gp inhibitor pretreatment, added: tariquidar 15 mg/kg iv): 0.074

C=C(NC(=O)c1csc(-c2nc3c(cc2O)-c2nc(cs2)C(=O)NC(C(C)O)C(=O)NC(=C(C)OC)c2nc(cs2)C(=O)NC2c4nc(cs4)C(=O)NC(COC(=O)c4c5c6c(cccc6n4O)COC(=O)C(OC4CC(C)(O)C(N(C)C)C(C)O4)C2OC5)c2nc-3cs2)n1)C(N)=O (stereo not drawn)
blood clearance (cynomolgus monkey, both sexes; intravenous infusion; relative to: hepatic blood flow): 5.95%

CSCC[C@H](N)C(=O)N[C@@H](CO)C(=O)N[C@H](C(=O)N[C@@H](C)C(=O)NCC(=O)N[C@@H](CC(C)C)C(=O)N[C@@H](CCCCN)C(=O)N[C@@H](CCCCN)C(=O)N[C@@H](CCC(N)=O)C(=O)N[C@@H](Cc1c[nH]c2ccccc12)C(=O)N[C@@H](Cc1c[nH]cn1)C(=O)N[C@@H](CCCCN)C(=O)N[C@@H](C)C(=O)N[C@H](C(=O)N[C@@H](CCC(N)=O)C(=O)N[C@@H](CCCCN)C(=O)N[C@H](C(=O)N[C@@H](CO)C(=O)N[C@@H](CCC(=O)O)C(=O)N[C@@H](CCCCN)C(=O)N[C@H](C(=O)NCC(=O)NCC(=O)N[C@@H](C)C(N)=O)C(C)C)C(C)C)[C@@H](C)O)C(C)C
helical content (circular dichroism; 25% DOPS/75% DOPC liposomes; 1 mM lipid): 26%

CC[C@H](C)[C@@H]1NC(=O)[C@H](Cc2ccc(O)cc2)NC(=O)CCCSC[C@@H](C(=O)N(CC(=O)N[C@@H](CC(C)C)C(=O)NCC(N)=O)Cc2ccc(F)cc2)NC(=O)[C@H](CC(N)=O)NC(=O)[C@H](CCC(N)=O)NC1=O
subjects with any TEAE (human; intranasal, 100 µg single dose): 17%

CC(C)(C)C(=O)Nc1ccc2[nH]c(CN3CCC(N(CCCN4CCOCC4)CC4OC(n5cnc6c(N)ncnc65)C(O)C4O)CC3)nc2c1 (stereo not drawn)
concentration (male Sprague-Dawley rat, plasma; intraperitoneal, 20 mg/kg, 30 min): 1560 ng/mL

CNC(=O)C[C@H](Cc1ccc(C#N)cc1)NC(=O)c1cc(-c2ccc(CN[C@H](C)c3ccc(C)cc3)o2)ccc1Cl
Papp A→B (Caco-2): 37 nm/s

C/C(N)=N/C(=N\S(=O)(=O)c1ccc(C(F)(F)F)cc1)N1C[C@H](c2ccccc2)C(c2ccc(Cl)cc2)=N1
half-life (male C57BL/6 mouse, liver; oral, 10 mg/kg): 198 min

CCC(C(=O)Nc1ccc(C(N)=O)c(F)c1)n1cc(OC)c(-c2cc(Cl)ccc2-n2cc(C(F)(F)F)nn2)cc1=O (stereo not drawn)
moderate adverse events (healthy male humans; 50 mg, fed): 0%

O=C(O)CCCOc1ccc([18F])cc1-c1cc(-c2ccccc2C(F)(F)F)n(-c2ccccc2)n1
absorbed dose (OLINDA/EXM from mouse data; human adults, thyroid): 8.8 µGy/MBq

C=CC(=O)Nc1cc(Nc2nccc(-c3cn(C)c4ccccc34)n2)c(OC)cc1N(C)CCNC
recovery (storage stability; human plasma; 5 h, on ice, LLOQ level): 94.5%

COc1cccc(OC)c1-c1cc(C(=O)NC2(C(=O)O)C3CC4CC(C3)CC2C4)nn1-c1ccc(C(=O)N(C)CCCN(C)C(=O)[C@H](CCCCNC(=O)[C@H](CC(C)C)NC(=O)C2OC2C(=O)O)NC(=O)CN2CCN(CC(=O)[O-])CCN(CC(=O)[O-])CCN(CC(=O)[O-])CC2)cc1C(C)C.[177Lu+3] (mixture of isomers)
tumour-to-lung ratio (mouse, HT-29 xenograft; 4 h post injection, biodistribution; relative to: tumour over lung uptake): 4.4

CNCc1ccc(-c2cc(=O)c3ccc4[nH]c(C(F)(F)F)nc4c3o2)cc1
AUC (ICR mice, plasma; intravenous, 2 mg/kg): 2320 ng·h/mL

CC(C)(O)c1ncc([S@](N)(=O)=NC(=O)Nc2c3c(cc4c2CCC4)CCC3)s1
subjects with adverse events (refers to: nervous system disorders; healthy human volunteers; oral, 200 mg once daily, 14 days, spray-dried dispersion): 57%

CCCCC/C=C\CCCO[Si](CCCCCN(C)C)(OCCC/C=C\CCCCC)OCCC/C=C\CCCCC
zeta potential (pH 5.5, formulated): 2.87 mV

CCCCN1C(=O)c2cccc3c(NCCN4CCOCC4)ccc(c23)C1=O
fluorescence quantum yield (DMF): 0.02

CCC(=O)N(C)c1ccc(Cl)c(Cl)c1
plasma concentration (mouse C57BL/6, female, plasma; oral, 10 mg/kg, 4 h, 2 of 3 mice below LOQ): 10.4 ng/mL

Cc1nc(N)nc2c1C(=O)N[C@@H](c1ccc(F)cc1-c1cccc(O[11CH3])n1)C2
SUV (ex vivo biodistribution; mice, MDA-MB-231 subcutaneous xenograft, muscle; 60 min post-injection, baseline, vehicle pre-treatment): 0.6 ± 0.04

COc1ccc(Nc2nc(Nc3ccc(OCCOCCOCC[18F])cc3)ncc2Br)cc1
uptake ratio (ICR mice, S180 tumour; intravenous, 370 kBq, 120 min; relative to: tumour over blood): 1.35

C=CC[C@@H]1/C=C(\C)C[C@H](C)C[C@H](OC)[C@H]2O[C@@](O)(C(=O)C(=O)N3CCCC[C@H]3C(=O)O[C@H](/C(C)=C/[C@@H]3CC[C@@H](O)[C@H](OC)C3)[C@H](C)[C@@H](O)CC1=O)[C@H](C)C[C@@H]2OC
dose-normalized AUC(0-12h) (kidney transplant recipients, CYP3A5 *1/*1 and *1/*3, whole blood; oral, dose not given, late phase, limited sampling): 95 ± 42 ng·h/mL

COc1cccc(OC)c1-c1cc(C(=O)NC2(C(=O)O)C3CC4CC(C3)CC2C4)nn1-c1ccc(C(=O)N(C)CCCN(C)CCCN(C)C(=O)[C@H](CCCCNC(=O)[C@H](CC(C)C)NC(=O)C2OC2C(=O)O)NC(=O)CN2CCN(CC(=O)[O-])CCN(CC(=O)[O-])CCN(CC(=O)[O-])CC2)cc1C(C)C.[177Lu+3] (mixture of isomers)
tumour-to-lung ratio (mouse, HT-29 xenograft; 72 h post injection, biodistribution; relative to: tumour over lung uptake): 22.7

O=C(Oc1ccccc1)c1ccc(O)cc1
mass balance (empty Transwells without cells; 5 µM, 60 min, basolateral to apical): 71%

COc1cccc(OC)c1-c1cc(C(=O)NC2(C(=O)O)C3CC4CC(C3)CC2C4)nn1-c1ccc(C(=O)N(C)CCOCCOCCN(C)C(=O)[C@H](CCCCNC(=O)[C@H](CC(C)C)NC(=O)C2OC2C(=O)O)NC(=O)CN2CCN(CC(=O)[O-])CCN(CC(=O)[O-])CCN(CC(=O)[O-])CC2)cc1C(C)C.[177Lu+3] (mixture of isomers)
tumour-to-small intestine ratio (mouse HT-29 xenograft; 24 h, biodistribution; relative to: tumour over small intestine): 12.2

Cc1nn(-c2nc3c(F)cc(F)cc3s2)c(O)c1C(c1ccc(C(F)(F)F)cc1)c1c(C)nn(-c2nc3c(F)cc(F)cc3s2)c1O
MRT(0-last) (ICR mouse, plasma; oral, 50 mg/kg): 4.05 h and 6.31 h and 4.04 h

CC[C@H](C)[C@H](NC(=O)[C@H](Cc1ccc(O)cc1)NC(=O)[C@@H](NC(=O)[C@H](CCCNC(=N)N)NC(=O)[C@@H](N)CC(=O)O)C(C)C)C(=O)N[C@@H](Cc1c[nH]cn1)C(=O)N1CCC[C@H]1C(=O)O
AUC (LC-MS/MS; Sprague-Dawley rats, both sexes, plasma; subcutaneous, 10 mg/kg/day, day 27): 101 ng·h/mL

Cc1noc(C)c1Cn1cc(N2C(=O)CN(Cc3cccc(OS(=O)(=O)O)c3)C2=O)cn1
plasma concentration (Sprague-Dawley rat, male; oral, 10 mg/kg of parent drug, 2 h): 1720 ng/mL

O=C([O-])CN1CCN(CC(=O)[O-])CCN(C(CO)C(O)CO)CCN(CC(=O)[O-])CC1.[Dy+3] (stereo not drawn)
lanthanide tissue concentration (cynomolgus monkey, skin; dose not given, day 5): 0.37 ± 0.14 nmol/g

O=C(Nc1cnccc1-c1ccc([18F])cc1)c1ccnc(NC(=O)C2CC2)c1
SUV (ex vivo gamma counting; FVB/NJ mice, both sexes, bone; intravenous, 120 min, mean, P-gp inhibitor pretreatment, added: tariquidar 15 mg/kg iv): 0.29

O=C(c1ccccc1)N1C(c2ccc(OCC3CCN(CCCF)C3)cc2)c2ccc(O)cc2CC12CC2 (stereo not drawn)
AUC extrapolated percentage (C57BL/6J mice, plasma; intraperitoneal, 25 mg/kg): 0.333%

CC(=O)N([O-])CCCCCNC(=O)CCC(=O)N([O-])CCCCCNC(=O)CCC(=O)N([O-])CCCCCN.[89Zr+4]
intact complex (radio-TLC; aqueous buffer; 5 d, pH 5, 37 °C, 89Zr-labelled complex, added: DTPA 1000-fold excess): 68.9 ± 2%

COc1ccc(C(=O)c2c(C(=O)NCCCN(C)C)oc3ccc(Cl)cc3c2=O)cc1OC
AUC extrapolated share (C57BL/6 mice, male, plasma; oral, 5 mg/kg): 11%

C=CC(=O)Nc1cc(Nc2nccc(-c3c[nH]c4ccccc34)n2)c(OC)cc1N(C)CCN(C)C
recovery (storage stability; human dried blood spots; 72 h, -80 °C, medium QC level): 90.1%

C=C[C@]1(C)C[C@@H](OC(=O)CSc2ccc(NC(=O)c3ccco3)cc2)[C@]2(C)[C@H](C)CC[C@]3(CCC(=O)[C@H]32)[C@@H](C)[C@@H]1O
plasma concentration (Mycoplasma gallisepticum-infected chickens, plasma; intramuscular, 80 mg/kg, 12 h): 49.7 ng/mL and 106 ng/mL and 76.6 ng/mL and 155 ng/mL and 76.5 ng/mL and 72.9 ng/mL and 139 ng/mL and 117 ng/mL

COc1cccc(OC)c1-c1cc(C(=O)NC2(C(=O)O)C3CC4CC(C3)CC2C4)nn1-c1ccc(C(=O)NCCNC(=O)[C@H](CCCCNC(=O)[C@H](CC(C)C)NC(=O)C2OC2C(=O)O)NC(=O)CN2CCN(CC(=O)[O-])CCN(CC(=O)[O-])CCN(CC(=O)[O-])CC2)cc1C(C)C.[177Lu+3] (mixture of isomers)
tumour-to-large intestine ratio (mouse HT-29 xenograft; 72 h, biodistribution; relative to: tumour over large intestine): 14.2

For quick reference, copied from above:
COc1ccc(Nc2nc(Nc3ccc(OCCOCCOCC[18F])cc3)ncc2Br)cc1
uptake ratio (ICR mice, S180 tumour; intravenous, 370 kBq, 120 min; relative to: tumour over blood): 1.35

C=CC[C@@H]1/C=C(\C)C[C@H](C)C[C@H](OC)[C@H]2O[C@@](O)(C(=O)C(=O)N3CCCC[C@H]3C(=O)O[C@H](/C(C)=C/[C@@H]3CC[C@@H](O)[C@H](OC)C3)[C@H](C)[C@@H](O)CC1=O)[C@H](C)C[C@@H]2OC
dose-normalized AUC(0-12h) (kidney transplant recipients, CYP3A5 *1/*1 and *1/*3, whole blood; oral, dose not given, late phase, limited sampling): 95 ± 42 ng·h/mL

COc1cccc(OC)c1-c1cc(C(=O)NC2(C(=O)O)C3CC4CC(C3)CC2C4)nn1-c1ccc(C(=O)N(C)CCCN(C)CCCN(C)C(=O)[C@H](CCCCNC(=O)[C@H](CC(C)C)NC(=O)C2OC2C(=O)O)NC(=O)CN2CCN(CC(=O)[O-])CCN(CC(=O)[O-])CCN(CC(=O)[O-])CC2)cc1C(C)C.[177Lu+3] (mixture of isomers)
tumour-to-lung ratio (mouse, HT-29 xenograft; 72 h post injection, biodistribution; relative to: tumour over lung uptake): 22.7

O=C(Oc1ccccc1)c1ccc(O)cc1
mass balance (empty Transwells without cells; 5 µM, 60 min, basolateral to apical): 71%

COc1cccc(OC)c1-c1cc(C(=O)NC2(C(=O)O)C3CC4CC(C3)CC2C4)nn1-c1ccc(C(=O)N(C)CCOCCOCCN(C)C(=O)[C@H](CCCCNC(=O)[C@H](CC(C)C)NC(=O)C2OC2C(=O)O)NC(=O)CN2CCN(CC(=O)[O-])CCN(CC(=O)[O-])CCN(CC(=O)[O-])CC2)cc1C(C)C.[177Lu+3] (mixture of isomers)
tumour-to-small intestine ratio (mouse HT-29 xenograft; 24 h, biodistribution; relative to: tumour over small intestine): 12.2

Cc1nn(-c2nc3c(F)cc(F)cc3s2)c(O)c1C(c1ccc(C(F)(F)F)cc1)c1c(C)nn(-c2nc3c(F)cc(F)cc3s2)c1O
MRT(0-last) (ICR mouse, plasma; oral, 50 mg/kg): 4.05 h and 6.31 h and 4.04 h
